Measured values gathered from unrelated publications.
A part holds a random share of what one study measured.
Sequence of UniProt Q5S007 (whole entry, unmodified, looked up): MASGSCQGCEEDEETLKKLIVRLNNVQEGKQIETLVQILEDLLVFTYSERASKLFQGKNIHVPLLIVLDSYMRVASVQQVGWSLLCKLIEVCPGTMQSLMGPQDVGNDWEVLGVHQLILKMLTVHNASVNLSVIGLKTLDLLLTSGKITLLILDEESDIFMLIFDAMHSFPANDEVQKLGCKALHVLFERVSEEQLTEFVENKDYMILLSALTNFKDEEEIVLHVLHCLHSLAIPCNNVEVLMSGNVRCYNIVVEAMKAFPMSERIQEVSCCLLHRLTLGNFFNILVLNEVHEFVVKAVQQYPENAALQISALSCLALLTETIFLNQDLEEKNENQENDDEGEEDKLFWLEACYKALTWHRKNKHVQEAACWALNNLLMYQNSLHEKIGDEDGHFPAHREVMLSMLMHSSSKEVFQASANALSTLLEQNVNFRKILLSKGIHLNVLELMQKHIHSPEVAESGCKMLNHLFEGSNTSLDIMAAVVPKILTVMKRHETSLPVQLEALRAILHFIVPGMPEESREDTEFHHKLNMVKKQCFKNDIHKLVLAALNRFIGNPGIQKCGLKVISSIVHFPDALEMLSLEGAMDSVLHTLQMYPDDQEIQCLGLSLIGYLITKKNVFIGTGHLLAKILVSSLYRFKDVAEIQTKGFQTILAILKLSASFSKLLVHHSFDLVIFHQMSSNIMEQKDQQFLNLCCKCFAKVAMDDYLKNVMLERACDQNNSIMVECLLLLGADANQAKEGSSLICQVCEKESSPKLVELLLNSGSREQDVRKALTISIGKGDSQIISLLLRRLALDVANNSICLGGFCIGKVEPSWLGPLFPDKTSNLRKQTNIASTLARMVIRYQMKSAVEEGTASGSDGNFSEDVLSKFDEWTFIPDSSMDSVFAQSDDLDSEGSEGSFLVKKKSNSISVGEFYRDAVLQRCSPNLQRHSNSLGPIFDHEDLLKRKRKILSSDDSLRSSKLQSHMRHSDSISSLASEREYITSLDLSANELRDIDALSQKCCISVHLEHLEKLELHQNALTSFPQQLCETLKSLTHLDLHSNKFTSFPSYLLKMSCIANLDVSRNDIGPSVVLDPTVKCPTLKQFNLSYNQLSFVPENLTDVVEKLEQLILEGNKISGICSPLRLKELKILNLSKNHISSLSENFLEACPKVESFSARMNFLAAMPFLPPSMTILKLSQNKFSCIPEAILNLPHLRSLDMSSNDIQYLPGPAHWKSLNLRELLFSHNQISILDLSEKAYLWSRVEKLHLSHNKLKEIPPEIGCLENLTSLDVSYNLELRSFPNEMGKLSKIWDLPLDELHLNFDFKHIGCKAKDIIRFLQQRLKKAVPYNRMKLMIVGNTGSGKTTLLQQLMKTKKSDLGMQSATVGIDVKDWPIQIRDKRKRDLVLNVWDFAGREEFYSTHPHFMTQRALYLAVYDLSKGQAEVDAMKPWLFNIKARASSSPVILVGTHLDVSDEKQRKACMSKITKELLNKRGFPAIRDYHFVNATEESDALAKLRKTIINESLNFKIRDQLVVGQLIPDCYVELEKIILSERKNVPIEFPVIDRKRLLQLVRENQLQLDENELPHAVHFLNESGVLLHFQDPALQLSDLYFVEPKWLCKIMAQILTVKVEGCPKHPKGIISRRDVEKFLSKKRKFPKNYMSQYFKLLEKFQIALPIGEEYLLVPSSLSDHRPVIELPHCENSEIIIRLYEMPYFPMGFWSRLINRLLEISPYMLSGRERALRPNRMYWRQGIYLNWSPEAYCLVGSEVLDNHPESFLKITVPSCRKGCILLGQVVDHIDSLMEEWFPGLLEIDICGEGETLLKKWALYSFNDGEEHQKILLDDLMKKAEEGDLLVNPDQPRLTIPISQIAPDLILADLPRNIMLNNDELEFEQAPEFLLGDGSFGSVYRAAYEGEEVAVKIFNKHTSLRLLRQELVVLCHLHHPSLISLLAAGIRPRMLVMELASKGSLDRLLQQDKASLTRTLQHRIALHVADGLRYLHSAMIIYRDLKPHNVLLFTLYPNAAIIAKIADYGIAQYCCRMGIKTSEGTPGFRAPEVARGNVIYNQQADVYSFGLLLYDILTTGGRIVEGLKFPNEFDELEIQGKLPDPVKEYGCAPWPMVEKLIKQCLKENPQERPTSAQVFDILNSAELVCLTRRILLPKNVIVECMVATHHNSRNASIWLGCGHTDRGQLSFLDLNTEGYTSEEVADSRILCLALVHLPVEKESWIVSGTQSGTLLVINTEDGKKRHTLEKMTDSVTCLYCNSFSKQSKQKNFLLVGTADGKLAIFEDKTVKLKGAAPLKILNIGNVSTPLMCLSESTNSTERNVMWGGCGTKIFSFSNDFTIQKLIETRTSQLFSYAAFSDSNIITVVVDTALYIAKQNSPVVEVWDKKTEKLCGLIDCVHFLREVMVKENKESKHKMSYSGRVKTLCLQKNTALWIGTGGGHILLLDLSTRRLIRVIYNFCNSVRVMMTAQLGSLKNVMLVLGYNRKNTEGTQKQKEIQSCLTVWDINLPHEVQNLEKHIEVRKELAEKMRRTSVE

Set 1
Target: Fragile X messenger ribonucleoprotein 1, C-terminal low-complexity region (Fmr1, Mus musculus, UniProt P35922)
Method: RNA Bind-n-Seq
Form: RNA
Medium: in vitro
Tested at: 200 nM
Setting: whole 134-nt RNA, ends assumed
With: 150 mM KCl
Reference: input library
Direction: higher = stronger binding
Measurement: log2 enrichment
Shared flanks, not repeated: GGGAGUUCUACAGUCCGACGAUC … UGGAAUUCUCGGGUGUCAAGG
Sequence = AUCAUUUCAUUUUUAUAAUUAUACAUUAGACAUUGGCACUUGUGUAAAACUGUCCCUGCAGAUUGAGCAGGAAGUAAAAACAAAUGGAAA; result = 0.00914
Sequence = UGGCCCUGGUGGCAUGCGGGGAGGCAGAGGUGGCCUCAUGGAUCGUGGUGGUCCCGGUGGAAUGUUCAGAGGUGGCCGUGGUGGAGACAG; result = 0.0548
Sequence = CUCAAGUCCUGUGCUACACAUCGUAUGUACCGAAUCGGGGCCGGCCGGGGCCGGAAAGUAUUAUGUUACGCCGUUCGGAUCUGCACUUCC; result = 0.00579
Sequence = CACAGACAACACGCACCCACACAGACACAGAGGGAAGGGGUUGGGAUGGGGACAGGGUGCACAGCAGCGCGGGGUAGGACCCCAGCCCCU; result = 1.3
Sequence = AGUCCUGUGCUACACAUCGUAUGUACCGAAUCGGGAGGGUUUUUGGGUUUUUUUGGGAAAGUAUUAUGUUACGCCGUUCGGAUCUGCACU; result = 0.221
Sequence = UGGCCCUGGUGGCAUGCGGGGAGGAAGAGGUGGCCUCAUGGAUCGUGGUGGUCCCGGUGGAAAGUUCAGAGGUGGCCGUGGUGGAGACAG; result = -0.021
Sequence = UGGGGAGACUACGAUGACAGCGCCUUCAUGGAGCCCAGGUACCACGUCCGUGGAGAAGAUCUGGACAAGCUCCACAGAGCUGCCUGGUGG; result = -1.23
Sequence = CAAGUCCUGUGCUACACAUCGUAUGUACCGAAUCGGUUUUUUUGGAAAGGAAAGGAAAGUAUUAUGUUACGCCGUUCGGAUCUGCACUUC; result = -0.78

Set 2
Target: Probable WRKY transcription factor 33, C-terminal DNA-binding domain (WRKY33, Arabidopsis thaliana, UniProt Q8S8P5, residues 346-449)
Method: DNA-protein interaction ELISA
Form: double-stranded DNA, one strand shown
Medium: in vitro, bacterial lysate
Tested at: not given
Setting: whole dsDNA probe, crude lysate protein
Reference: highest signal in screen
Direction: higher = stronger binding
Measurement: relative absorbance
Target sequence (chain): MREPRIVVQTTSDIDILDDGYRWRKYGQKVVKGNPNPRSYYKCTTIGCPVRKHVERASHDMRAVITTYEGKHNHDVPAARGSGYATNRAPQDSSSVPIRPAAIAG
Sequence = AAAAAACTACTACCTTTGCCTAAGCGAAAA; result = 28.2 % of maximum
Sequence = AAAAAATTGGCACACATGATCTCGGGAAAA; result = 29.2 % of maximum
Sequence = AAAAAATGAATCAATTTTTGGGCTTTAAAA; result = 34.5 % of maximum
Sequence = AAAAAATCTTCACCTCACTTCGGTTTAAAA; result = 35.6 % of maximum
Sequence = AAAAAAACTCACGGCGTCACTATGGTAAAA; result = 35.6 % of maximum
Sequence = AAAAAATATCGGGCACGGTCTTGTCTAAAA; result = 49.8 % of maximum
Sequence = AAAAAAGCCCCTTGCGCCTCTCTACCAAAA; result = 27.3 % of maximum
Sequence = AAAAAATCTTCTTGTTTCTTATTTCTAAAA; result = 33.8 % of maximum

Mixed results
Molecule = PhoQ, residues 284 288 289 292 302 303 GNNTDL; target = PhoP, residues 12 14 15 18 19 IQSYL (Escherichia coli, UniProt P23836); test = Sort-seq, item: YFP reporter; system = E. coli; setting = PhoQ-PhoP variant library, with: 10 µM Mg2+; scale = reference: high Mg2+ state, higher = stronger signaling; measurement = fold induction; result = 12
Molecule = CO[C@H]1CC[C@H](CNc2ccc(S(=O)(=O)NC(=O)c3ccc(N4CCN(CC5=C(c6ccc(Cl)cc6)CC(C)(C)CC5)CC4)cc3Oc3cnc4[nH]ccc4c3)cc2[N+](=O)[O-])CC1; target = LRRK2 (Homo sapiens, UniProt Q5S007, G2019S); test = cell-free assay, competition with immobilised ligand; setting = 1 µM; measurement = remaining binding; result = 100%

Excerpt of the above (set 1):
Sequence = CUCAAGUCCUGUGCUACACAUCGUAUGUACCGAAUCGGGGCCGGCCGGGGCCGGAAAGUAUUAUGUUACGCCGUUCGGAUCUGCACUUCC; result = 0.00579
Sequence = CACAGACAACACGCACCCACACAGACACAGAGGGAAGGGGUUGGGAUGGGGACAGGGUGCACAGCAGCGCGGGGUAGGACCCCAGCCCCU; result = 1.3
